Measurements from different studies.
Every numbered part comes from another study and shows a few of its results, in no order. Positions count from the first letter of the parent shown.

Series 1 — method: RNA Bind-n-Seq; molecule type: RNA; sample: in vitro; tested at: 200 nM; setting: whole 134-nt RNA, ends assumed; together with: 150 mM KCl; baseline: input library; direction: higher = stronger binding
Target: Fragile X messenger ribonucleoprotein 1, C-terminal low-complexity region (Fmr1, Mus musculus, UniProt P35922)
Oligonucleotide | log2 enrichment
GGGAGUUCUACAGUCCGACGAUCACUUUGUCAGAUAUUGCUAGGGACCAGUGAGAUAGAUAAUCCAAAAAUAAUAAUUUGACUUUGGUUGAGUAUGUCAUUACCACAGUGUUAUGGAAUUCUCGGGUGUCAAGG | -1.75
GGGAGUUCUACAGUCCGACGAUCUCAAGUCCUGUGCUACACAUCGUAUGUACCGAAUCGGAAAAAGGUGGUUUUUGGAAAGUAUUAUGUUACGCCGUUCGGAUCUGCACUUCCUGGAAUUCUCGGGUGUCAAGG | -0.655
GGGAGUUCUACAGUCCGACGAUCGUCCUGUGCUACACAUCGUAUGUACCGAAUCGGGAAAAAGGGGAAAAAGGGAAAAAGGGAAAGUAUUAUGUUACGCCGUUCGGAUCUGCAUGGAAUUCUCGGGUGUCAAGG | -0.319
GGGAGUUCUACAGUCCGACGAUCCCUCAAGUCCUGUGCUACACAUCGUAUGUACCGAAUCGGUGGUGGAAAAAGGAAAGUAUUAUGUUACGCCGUUCGGAUCUGCACUUCCAGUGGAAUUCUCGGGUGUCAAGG | 0.141
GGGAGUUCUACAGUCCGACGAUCCAAGUCCUGUGCUACACAUCGUAUGUACCGAAUCGGGGUGGGGUUUGGGGUGGGGAAAGUAUUAUGUUACGCCGUUCGGAUCUGCACUUCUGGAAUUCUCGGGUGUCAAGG | 1.3
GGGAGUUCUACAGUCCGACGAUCGUCCUGUGCUACACAUCGUAUGUACCGAAUCGGGUUUGGGAAAAAAAGGGAAAAAGGGAAAGUAUUAUGUUACGCCGUUCGGAUCUGCACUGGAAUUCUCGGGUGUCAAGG | -0.151
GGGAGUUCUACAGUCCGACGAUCUCCUGUGCUACACAUCGUAUGUACCGAAUCGGAAAAAAAGGUUUUUUUGGAAAAAAAGGAAAGUAUUAUGUUACGCCGUUCGGAUCUGCAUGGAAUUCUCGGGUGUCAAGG | -0.823
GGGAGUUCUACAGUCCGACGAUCCUGUGCUACACAUCGUAUGUACCGAAUCGGGGAAAAAAAGGGAAAAAAAGGGGAAAAAAAGGAAAGUAUUAUGUUACGCCGUUCGGAUCUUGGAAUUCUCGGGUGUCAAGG | -0.33

Series 2 — method: RNA Bind-n-Seq; molecule type: RNA; sample: in vitro; tested at: not given; baseline: input RNA pool; direction: higher = stronger binding
Target: RING finger protein unkempt homolog, zinc fingers 1-6, GST-SBP tag (UNK, Homo sapiens, UniProt Q9C0B0, residues 30-357)
Chain of UniProt Q9C0B0 (30-357, looked up): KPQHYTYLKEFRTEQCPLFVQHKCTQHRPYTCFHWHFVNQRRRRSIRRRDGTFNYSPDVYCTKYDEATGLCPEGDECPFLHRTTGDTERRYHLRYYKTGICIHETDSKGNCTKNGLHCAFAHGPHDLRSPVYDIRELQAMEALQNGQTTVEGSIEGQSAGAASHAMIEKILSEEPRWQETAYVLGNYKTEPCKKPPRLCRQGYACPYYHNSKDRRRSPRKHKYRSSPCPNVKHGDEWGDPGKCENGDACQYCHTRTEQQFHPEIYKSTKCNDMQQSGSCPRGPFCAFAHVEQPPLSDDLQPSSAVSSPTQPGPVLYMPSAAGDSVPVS
Setting: RNA with constant flanks, human and mouse sites, ends assumed
Oligonucleotide | bound/input enrichment
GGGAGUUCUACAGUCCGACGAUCGGUCAUCGCGCCCUUUCCCCUGCCGGUGUCCUGCUCGCCGUCCCCGCCAUGCUGUCUCUAGACUUUUUGGACGAUGUGCGGCGGAUGAACAAGCGGCAGCUCUAUUAUCAAGUCCUAAAUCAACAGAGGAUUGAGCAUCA | 0.108 ratio
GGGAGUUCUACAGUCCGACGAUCAUGGCUCGCCUGGUGCUCGGUCUGGUGAGCUGCACCUUCUUUCUAGCAGUCAGCGGUCUGUAUUCUUCUAGUGAUGAUGUCAUCGAGUUGACGCCAUCAAAUUUCAACAGAGAAGUUAUUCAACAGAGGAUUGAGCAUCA | 0.281 ratio
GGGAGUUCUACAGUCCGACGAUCCUGAAAGAAAUUCAAGCCAUGAGCCAAUGCAGCCAUCCCAACGUAGUGACUUAUUACACCUCCUUUGUGGUCAAAGAUGAGCUGUGGCUGGUCAUGAAAUUACUAAGUGGAGGUUCCAUGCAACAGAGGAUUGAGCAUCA | 0.287 ratio
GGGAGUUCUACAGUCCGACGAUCAUAAGGACAUGGACAUCAUCACCAAGUUCCUGAAGUUUCUUCUUGGUGUUUGGGCUAAAGAACUGAAUGCCAGAGAGGACUACGUGAAACGCAGUGUGCAGGGCAAACUGAACAGUGCUACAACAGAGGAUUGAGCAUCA | 0.125 ratio
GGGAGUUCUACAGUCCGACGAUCUGCAGCUCCCCACUCCAGCUCAAUCUGCUGCAGCUUGAGGAGUCCCCCCGCACGGAGGGGGGCGCUGCUGCAGGAGGCCCAGGAAGCAGUGCUGGGCCCCUGCCUCCCAGUGAGGAGACUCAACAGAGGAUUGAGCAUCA | 0.149 ratio
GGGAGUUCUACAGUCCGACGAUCUUACAGUACCUUUACCAGCAUCGCAGCUUUCCUUGCCUAAUUUUGGAUCUACAGGGCAACCUCUAAUUGCUUUGCCUCAGACUCUUCAGCCCCCAUUACAGCAUACCACUCCCCAAGCACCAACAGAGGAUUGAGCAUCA | 0.424 ratio
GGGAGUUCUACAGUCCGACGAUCACAGAGGCUCGGGGCCGGGAUGGGGUAUGGAAACGGUUGGAGGAAUGGAUGUCUUGGGACAAUUUUGCAGAUUAUGUGUUGCUUAAAAUGUAAUGUAACUGACACAGAGCCCAGAAAGCUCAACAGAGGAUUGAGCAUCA | 0.396 ratio
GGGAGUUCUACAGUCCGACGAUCGCAGGCUACUUUUUGGAACAUCUGGCUUUCAAGGGAACAAAGAAUCGGCCUGGCAAUGCCUUAGAGAAGGAGGUAGAGAGUAUUGGGGCUCAUCUUAAUGCCUACAGCACUCGAGAGCACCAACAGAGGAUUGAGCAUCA | 0.303 ratio

Series 3 — target: CCNA1, cyclin fold, Cln2 fusion (human); method: yeast growth competition, sequencing; sample: yeast; setting: weak parent motif; baseline: not given; direction: higher = stronger binding
Starting sequence: CDC42EP1 docking peptide (human); SLVVGKLSFDSSP
Change | normalised enrichment score
V4A | -0.213
D10A | -0.319
S12A | -0.214
G5A | -0.209
F9A | -0.344
S11A | -0.726

Other studies, line by line
Substance | target | test | test system | conditions | how to read | endpoint | value
PhoQ, residues 284 288 289 292 302 303 TNASYF | PhoP, residues 12 14 15 18 19 NQFFI (Escherichia coli, UniProt P23836) | Sort-seq, item: YFP reporter | E. coli | PhoQ-PhoP variant library, together with: 10 µM Mg2+ | baseline: high Mg2+ state, higher = stronger signaling | fold induction | 2.21

For quick reference, copied from above (series 1):
Oligonucleotide | log2 enrichment
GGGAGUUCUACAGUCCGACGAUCCCUCAAGUCCUGUGCUACACAUCGUAUGUACCGAAUCGGUGGUGGAAAAAGGAAAGUAUUAUGUUACGCCGUUCGGAUCUGCACUUCCAGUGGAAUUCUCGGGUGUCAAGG | 0.141
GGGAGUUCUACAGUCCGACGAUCACUUUGUCAGAUAUUGCUAGGGACCAGUGAGAUAGAUAAUCCAAAAAUAAUAAUUUGACUUUGGUUGAGUAUGUCAUUACCACAGUGUUAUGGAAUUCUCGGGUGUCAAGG | -1.75
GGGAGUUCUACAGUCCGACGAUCCUGUGCUACACAUCGUAUGUACCGAAUCGGGGAAAAAAAGGGAAAAAAAGGGGAAAAAAAGGAAAGUAUUAUGUUACGCCGUUCGGAUCUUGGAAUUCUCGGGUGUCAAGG | -0.33
